Measured values pooled from the literature.
Parts stem from different laboratories: compare values within a part only. Substitutions count along the parent as printed.

Sample 1
Molecule: PhoQ, residues 284 288 289 292 302 303 QWGLFV
Technique: Sort-seq
Item: YFP reporter
Sample: E. coli
Notes: PhoQ-PhoP variant library
Added: 10 µM Mg2+
Baseline: high Mg2+ state
Direction: higher = stronger signaling
target	fold induction
PhoP, residues 12 14 15 18 19 LHTVL (Escherichia coli, UniProt P23836)	19.5
PhoP, residues 12 14 15 18 19 NQCAL (Escherichia coli, UniProt P23836)	38.6
PhoP, residues 12 14 15 18 19 TQAML (Escherichia coli, UniProt P23836)	22.8

Sample 2
Target: Centromere-binding protein 1, full length, N-terminal tag (CBF1, Saccharomyces cerevisiae, UniProt P17106, residues 1-351)
Sequence of UniProt P17106 (whole entry, looked up): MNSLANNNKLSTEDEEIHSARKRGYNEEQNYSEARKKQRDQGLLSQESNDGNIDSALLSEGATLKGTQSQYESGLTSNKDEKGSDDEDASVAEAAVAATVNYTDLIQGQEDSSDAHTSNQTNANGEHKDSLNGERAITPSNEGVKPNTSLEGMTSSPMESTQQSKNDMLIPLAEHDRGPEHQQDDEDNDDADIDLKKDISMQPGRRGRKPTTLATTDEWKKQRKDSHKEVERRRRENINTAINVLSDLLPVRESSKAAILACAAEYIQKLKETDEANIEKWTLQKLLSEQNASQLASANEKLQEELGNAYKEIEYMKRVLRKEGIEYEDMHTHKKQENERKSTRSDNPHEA
Technique: protein-binding microarray
Molecule type: double-stranded DNA, one strand shown
Sample: in vitro
Concentration: 0.8 µM
Notes: whole 60-bp probe, no competitor
Direction: higher = stronger binding
Constant ends, left off below: … GTCTTGATTCGCTTGACGCTGCTG
Strand	fluorescence intensity [a.u.]
GAATTCCTGGATATGCGCGTGCTAACTAGAGCATAG	723
CTAAACACTAAGCGTTATGTGACCAATGTATAATTC	527
GAATGTACAGAGTGTACCACCACGTTTTAATACTAG	604
GAAGTCAACAAGCATCACCAGAGACGCCTATTATAG	515
GAATTGTACATTCATGTGATAATTTGACGCGGATAG	1140
GAATTGATCAATCTTTTCGTCACCTTTTCTTCTTAG	526
CTAATCACAAAATGTCACGTGCATGTTAGTCCATTC	14200
TGTACGAAGCTATTGCACACGTATATAGTAGTTAGG	520
CTAATTCACGCTGTCCTCGTGAAAAAACTTTTTTTC	698
CTAAGGTAGTTGGATCAGCTGAAGTATTTGGGTTTC	551
CCTAACTACTATATTTGAGTCACATAGCTTCGTACA	591
GAATCGTTCTGCGAGAGCGTGTCTAAAGATAAGTAG	564

Sample 3
Target: ABI1, truncated, D143A, DHFR fusion (Arabidopsis thaliana)
Technique: DHFR PCA, deep sequencing
Sample: yeast
Notes: methotrexate growth selection, single substitutions
Added: (+)-ABA 0.0091 µM
Baseline: wild-type fitted maximum
Direction: higher = stronger binding
Parent: PYL1, truncated, DHFR fusion (Arabidopsis thaliana); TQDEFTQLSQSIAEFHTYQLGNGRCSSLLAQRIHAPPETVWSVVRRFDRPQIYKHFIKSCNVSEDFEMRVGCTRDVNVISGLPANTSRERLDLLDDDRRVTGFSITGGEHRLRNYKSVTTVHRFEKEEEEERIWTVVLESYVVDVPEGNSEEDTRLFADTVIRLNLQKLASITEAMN; partner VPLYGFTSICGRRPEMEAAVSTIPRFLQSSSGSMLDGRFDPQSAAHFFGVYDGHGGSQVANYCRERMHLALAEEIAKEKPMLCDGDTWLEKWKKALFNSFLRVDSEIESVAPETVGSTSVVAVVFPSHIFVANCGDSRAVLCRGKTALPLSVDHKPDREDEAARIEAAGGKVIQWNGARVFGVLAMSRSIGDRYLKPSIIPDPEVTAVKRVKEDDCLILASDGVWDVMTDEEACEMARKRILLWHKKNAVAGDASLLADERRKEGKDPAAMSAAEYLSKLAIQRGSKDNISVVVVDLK
Variant	relative binding score
R45L	-1.1%
E139C	6.49%
S80Q	5.24%
V78H	55.7%
A175T	12.5%
S104I	0.485%
Q2V	60.9%
R111K	14.8%
P37I	-1.42%
Q51V	-0.188%
Y18Q	4.11%
L8M	43%
H55I	20%

Sample 4
Target: Histone acetyltransferase KAT6A, winged helix 2, GST fusion (KAT6A, Homo sapiens, UniProt Q92794, residues 85-181)
Technique: protein binding microarray
Molecule type: double-stranded DNA, one strand shown
Sample: in vitro
Concentration: not given
Notes: 8-mer, flanks averaged, mean of 2 arrays, mostly near background
Baseline: not given
Direction: higher = stronger binding
Residues (chain): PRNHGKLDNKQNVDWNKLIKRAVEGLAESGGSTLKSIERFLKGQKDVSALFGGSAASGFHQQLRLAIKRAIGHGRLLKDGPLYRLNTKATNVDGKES
Strand	E-score
AGGGTGCC	-0.0745
AGACATGC	-0.11
CAACACGC	-0.157
TACGACTA	-0.166
CAACCGGC	0.163
CAGGGAGG	0.13
CTGGCAAG	0.0511
AAGCTATT	-0.256
ATTAGTCC	-0.0359
AAGGCCGC	0.177
AGTAGCAG	-0.0389
ACTATTTA	-0.021
GTTATGCA	-0.148
ATATCCGA	0.0189
CCATCACA	0.0469

For quick reference, copied from above (sample 1):
target	fold induction
PhoP, residues 12 14 15 18 19 LHTVL (Escherichia coli, UniProt P23836)	19.5
PhoP, residues 12 14 15 18 19 NQCAL (Escherichia coli, UniProt P23836)	38.6
PhoP, residues 12 14 15 18 19 TQAML (Escherichia coli, UniProt P23836)	22.8
